Results of several laboratories.
Parts stem from different laboratories: compare values within a part only.

Study 1 — technique: RNA Bind-n-Seq; form: RNA; matrix: in vitro; tested at: 365 nM; reference: no-protein control; direction: higher = stronger binding
Target: RNA binding protein fox-1 homolog 2, RRM domain, GST-SBP tag (RBFOX2, Homo sapiens, UniProt O43251-10, residues 100-194)
Notes: natural RNA segment, single round, ends assumed
Shared flanks, not repeated: GGGAGUUCUACAGUCCGACGAUC … UGGAAUUCUCGGGUGCCAA
Target sequence (chain): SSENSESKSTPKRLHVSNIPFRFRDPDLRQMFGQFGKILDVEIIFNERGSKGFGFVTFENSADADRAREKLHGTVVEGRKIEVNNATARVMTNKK
`AGCUGGACCAUCGUCCCUGCUUCUCUUAUGAUCGCCCCACCUCAUUUCCAUUUCAGUCUGGGGACCCCAUUUCUCCCUCCUUUCCAACUUCCUUCCUUUCUUGUCCUGUU`: “RBNS enrichment (R)” 0.921.
`AUUUAUGAUGAAAUAUUUUAAUUAGGUCAAUUAUCUAGAAUUACCUAGUUUUGUCUAUAUAUCUUUUCCAUGAAAUUAUAGCUAUCUAUGUAUUUGUAGUUGUUUCUUUC`: “RBNS enrichment (R)” 0.622.
`CAGGCCUUUCCCUGCCGGCCCCCCAAGGAUGGGGUUCUUGUCCACGGGGCUCACUCUGGCCCCCUAUUGUCUCCAAGGUCCCAUUUUCCCCCUGUGUUUUCACGCAGGUC`: “RBNS enrichment (R)” 0.304.
Under “RBNS enrichment (R)”, `AGCGGGCCAGUCCGUGCUUCUCCAGCUUCCCCAUGAGGCCAGCCGGGCCACGGCCUCCAUCAUGCUGAAUGACGCCUUCCUUCUGCCCCACCCCAGAAAAUCACUGUGAA` is recorded as 0.329.
`CUGGUUUGUUGUAUUAUAGUAUAUUUCGCUGUGGAAAAUGUCACGUUUAGUCACCUUGGAGCCCACUCACCUGGUCCUGUUGUUUUACCCCAUCCCUUCUCUCGCGCGCC` — result for “RBNS enrichment (R)”: 0.418.
Under “RBNS enrichment (R)”, `CUCCCCUGCCCCGCGGGUCUCUGGAUUGGGACGCACAGUGCAGUUGAGGUCUGCGUCGGGCUUGGCUUUUCACAAAGGCUGAUGUCUUAACUGUCACCCAUAUGGUCCCU` is recorded as 0.171.
`CCAGCACUAAUGUGUUUUGUCCACUUCAAACGCUGUUCUAAUUGCCAACCGGCUGCUCUAGGCUCCUGAGGAGUGUCCCUUCUCAAAGGAACUGCGCCCUGGAAAGGGCU`: “RBNS enrichment (R)” 0.322.
Under “RBNS enrichment (R)”, `CCAGCCUAAAUGACAGGUCCUCUGAAAAAGAGGUGCUGAGGAGUAAUGGGGCCAGCUGAUUAAAGAAAAAGAACCCCCACACAACAGGACUGUCAGGACAGAUUGAGUUA` is recorded as 0.861.

Study 2 — technique: RNA Bind-n-Seq; form: RNA; matrix: in vitro; tested at: not given; reference: input RNA pool; direction: higher = stronger binding
Target: RING finger protein unkempt homolog, zinc fingers 1-6, GST-SBP tag (UNK, Homo sapiens, UniProt Q9C0B0, residues 30-357)
Notes: RNA with constant flanks, human and mouse sites, ends assumed
Shared flanks, not repeated: GGGAGUUCUACAGUCCGACGAUC … CAACAGAGGAUUGAGCAUCA
Residues (chain): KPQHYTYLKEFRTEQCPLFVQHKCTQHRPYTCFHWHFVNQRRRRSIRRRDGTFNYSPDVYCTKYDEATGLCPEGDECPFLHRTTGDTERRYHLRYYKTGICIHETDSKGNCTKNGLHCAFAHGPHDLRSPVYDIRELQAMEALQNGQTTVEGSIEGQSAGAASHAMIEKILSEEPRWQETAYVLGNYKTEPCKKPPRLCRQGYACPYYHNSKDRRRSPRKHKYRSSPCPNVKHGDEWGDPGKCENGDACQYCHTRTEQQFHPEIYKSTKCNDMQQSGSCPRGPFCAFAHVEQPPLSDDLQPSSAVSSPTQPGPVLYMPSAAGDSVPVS
`CCUGCUCCCAAAUCAUGGGCCAGUAACAAGCAAGGUGGGCAAGGAGAUGGAAUCCAAGUGAAUAGUCAGUUUCAGCAAGAAUUUCCCAGCCUGCAGGCAGCUGGGGAUCAGGAAAAAAAA` gave a bound/input enrichment of 0.323 ratio.
The bound/input enrichment of `UGCGGCUGGCUCUAGGCGAUGCCGAGCAGCUCGGACACGGCGCUGGGGGGAGGCGGGGGCCUGAGCUGGGCGGAGAAGAAGUUGGAGGAACGCCGCAAGCGGAGGCGAUUCCUGUCCCCU` is reported as 0.19 ratio.
`GAAAUUGUUGAAUUUUUGUUGCAACUUGGAGUGCCAGUGAAUGAUAAAGACGAUGCAGGUUGGUCUCCUCUUCAUAUUGCGGCUUCUGCUGGCCGGGAUGAGAUUGUAAAAGCCCUUCUG` has a bound/input enrichment of 0.235 ratio.
With `GAAGGCUGAUGUGUGCUGGGGAUACUCUGGAAGACAGUGGAAACUAACUUCCUGUUCAAACUGUGAAAAUGUGUAUACCAGAGGACUAACUUAUUUUUGUAAACUACUACUGCUACAUAC` the bound/input enrichment was 0.0923 ratio.
`GUAAUGGGAAGUGGGCCAAAGGAAUCAGCUUUAAAAGCCCUAAAUAGUGACAUGCCCUUAUAUAUUCUGUCAUCCUCUCAAGGUAGAGGGCUGAAACCUCAUUAUGCUCAACUUAUGAGG` gave a bound/input enrichment of 0.466 ratio.
`UCUAACAUUAGCCUUGUCUUUGAUUUUAUGGAAACUGACCUCGAGGUUAUUAUAAAGGAUAACAGCCUUGUGCUGACACCAUCCCACAUUAAAGCCUACAUGUUGAUGACUCUUCAGGGC` gave a bound/input enrichment of 0.266 ratio.
`AAGAGGAAAUACUCAGAGGUUGAUGAUAGCUUGCCUUCAGGAGGAGAAAAACCAUCAAAGAAUGAAACCGGCUUAUUGUCUUCAAUUAAAAAGUUCAUUAAAGGAAGCACACCCAAGGAA` has a bound/input enrichment of 0.207 ratio.
The bound/input enrichment of `UGUGUUCACAAUUACGUGAAGGGAGGACCCUUGGGGACCGCCAUUCUAAAUAUCAUGUAGGAAUUUAAAAAGCCAAAAUACUAAUUAUUUCUUUGUAGUGUGUAAAGGAAUGUUUUUAAA` is reported as 1.96 ratio.

Study 3 — technique: protein-binding microarray; form: double-stranded DNA, one strand shown; matrix: in vitro; tested at: 2540 nM top; notes: 60-bp whole probe; with: salmon DNA 0.4 mg/ml; reference: random background probes; direction: higher = stronger binding; shared flanks, not repeated: GCCTAGCAC … GTCTTGATTCGCTTGACGCTGCTG
Target: Interferon regulatory factor 3, full length, phosphomimetic (IRF3, Homo sapiens, UniProt Q14653, residues 1-427, S386D/S396D/S398D/S402D/T404D/S405D)
Chain of UniProt Q14653 (whole entry, unmodified, looked up): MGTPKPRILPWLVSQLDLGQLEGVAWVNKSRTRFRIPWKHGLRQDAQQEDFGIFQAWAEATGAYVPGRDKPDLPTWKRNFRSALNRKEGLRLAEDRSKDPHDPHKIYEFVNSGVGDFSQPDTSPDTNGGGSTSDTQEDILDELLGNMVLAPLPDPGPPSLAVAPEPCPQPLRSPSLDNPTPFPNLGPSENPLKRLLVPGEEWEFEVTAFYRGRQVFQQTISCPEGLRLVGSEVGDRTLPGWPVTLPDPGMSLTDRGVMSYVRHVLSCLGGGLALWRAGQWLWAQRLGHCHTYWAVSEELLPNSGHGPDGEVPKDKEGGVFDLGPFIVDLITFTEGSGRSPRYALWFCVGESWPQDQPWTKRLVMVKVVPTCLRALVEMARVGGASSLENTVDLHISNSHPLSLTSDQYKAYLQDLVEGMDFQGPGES
Under “fitted relative affinity”, `GACGATTTCAGCTCCGAGACGTGCTAG` is recorded as 0.625 z-score.
`GACGGTATAGGTCTCGGGACGTGCTAG`: “fitted relative affinity” -0.347 z-score.
`GACGGACTGCTTTTCTTGACGTGCTAG`: “fitted relative affinity” 0.0338 z-score.
`TTATGTTTCCTTTTCCTTTAGTGCTAG` — result for “fitted relative affinity”: 10.8 z-score.
`GACTGTTTCGGGACTGGGGACGTGCTA`: “fitted relative affinity” 3.89 z-score.
Under “fitted relative affinity”, `TTAGGTTTCCTGATCCTTTAGTGCTAG` is recorded as 3.78 z-score.
For `TTAGGTATCGGTATTGGTTAGTGCTAG`, “fitted relative affinity” read 3.67 z-score.
Under “fitted relative affinity”, `TACTTTCTACGTCTGATTTTGTGCTAG` is recorded as 1.46 z-score.

Single results of other studies
With `Cl.O=C1[C@H]2CCCC[C@H]2C(=O)N1CCCCN1CCN(c2nsc3ccccc23)CC1` the inhibition was 91.7% (Sarcocystis neurona; parasite growth; 10 µM, secondary screen).

For quick reference, copied from above (study 3):
For `TTAGGTATCGGTATTGGTTAGTGCTAG`, “fitted relative affinity” read 3.67 z-score.
`GACGGTATAGGTCTCGGGACGTGCTAG`: “fitted relative affinity” -0.347 z-score.
